# Assay results pooled from the literature.
# Each numbered part is a random draw from the data of one study; scales do not carry over between parts. Substitutions count along the parent as printed.

# Sample 1
# Target: CCND2, cyclin fold, Cln2 fusion (human)
# Technique: yeast growth competition, sequencing
# Matrix: yeast
# Setting: weak parent motif
# Reference: not given
# Reading: higher = stronger binding
# Parent: MICAL3 docking peptide (human); LQLRRQLSFSEDS
Change,normalised enrichment score
R5Q,-0.0869
R4F,0.0741
S8I,0.36
Q6Y,-0.0631
L3H,-0.187
F9P,-0.0406
S8Y,0.226
D12K,0.124
R4V,0.0516
E11T,-0.0509
F9H,-0.265
L7Y,-0.221
L7N,0.137
L3E,-0.153
R4N,0.128
S10D,0.308
R4T,-0.178
R4C,0.507
R5S,-0.31
L7K,0.0385
L7P,-0.111
L7I,0.331
S10Y,0.167
R4M,-0.262
S10R,0.266

# Sample 2
# Target: Sal-like protein 4, full length isoform B (SALL4, Homo sapiens, UniProt Q9UJQ4-2, residues 1-616)
# Technique: universal PBM
# Form: double-stranded DNA, one strand shown
# Matrix: in vitro
# Concentration: not given
# Setting: 8-mer, flanks averaged, mean of replicates
# Reading: higher = stronger binding
# Residues (chain): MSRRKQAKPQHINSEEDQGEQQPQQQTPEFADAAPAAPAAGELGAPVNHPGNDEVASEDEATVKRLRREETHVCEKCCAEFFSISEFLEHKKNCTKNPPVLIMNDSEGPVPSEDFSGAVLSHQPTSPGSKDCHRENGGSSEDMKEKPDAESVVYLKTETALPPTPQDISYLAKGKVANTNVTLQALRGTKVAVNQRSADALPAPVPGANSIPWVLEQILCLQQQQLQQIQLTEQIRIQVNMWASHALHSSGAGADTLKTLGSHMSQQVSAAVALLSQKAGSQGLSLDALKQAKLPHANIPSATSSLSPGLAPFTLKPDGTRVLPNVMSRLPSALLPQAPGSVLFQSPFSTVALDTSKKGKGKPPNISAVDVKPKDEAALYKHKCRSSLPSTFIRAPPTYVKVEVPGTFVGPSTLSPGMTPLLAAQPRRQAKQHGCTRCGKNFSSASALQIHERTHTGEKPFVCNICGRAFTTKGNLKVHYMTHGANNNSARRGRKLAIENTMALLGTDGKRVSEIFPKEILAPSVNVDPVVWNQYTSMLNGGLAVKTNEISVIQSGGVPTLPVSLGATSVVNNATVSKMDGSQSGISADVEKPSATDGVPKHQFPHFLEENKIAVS
Sequence,E-score
GTCGATTA,0.203
CCCACGCG,-0.225
AAAGGCGA,0.11
AGAATTCT,0.108
ACGGGTAG,-0.157
AGACTACC,-0.00209
GTCCTGAA,-0.167
ACAAGCCA,-0.0921
CAACGTCC,-0.242
CCGCCCAA,-0.202
CAAGCTCC,-0.179
AAGTGATG,-0.0197
AGACTTAG,-0.087
TACATCAA,0.211
ATTGATCC,0.0905
AAAGAAAT,0.298
GCGCCCCC,-0.352
CGGTCGAG,-0.271
AGAGGGTC,-0.182
CAAGACCA,-0.0491
GGCTTGAC,-0.202
AAAGGCAG,0.0579
CGTTCCAA,0.0948
ATCCTCAC,-0.0301

# Sample 3
# Target: ABI1, truncated, D143A, DHFR fusion (Arabidopsis thaliana, UniProt P49597)
# Technique: DHFR PCA, dose-response
# Matrix: yeast
# Setting: Hill fit, mean, not affinity
# With: (+)-ABA, dose series
# Reading: lower = more sensitive
# Parent: PYL1, truncated, DHFR fusion (Arabidopsis thaliana, UniProt Q8VZS8); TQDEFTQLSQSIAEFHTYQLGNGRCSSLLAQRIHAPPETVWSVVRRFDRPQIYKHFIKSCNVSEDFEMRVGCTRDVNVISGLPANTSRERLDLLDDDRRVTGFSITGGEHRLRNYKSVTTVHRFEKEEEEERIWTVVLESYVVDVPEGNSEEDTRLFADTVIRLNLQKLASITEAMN
Change,ABA EC50 [µM]
G71P,74.7
T101V,7.7
L156N,3.36
P146D,666
P36M,5.9
R69Y,11
G81A,108
E67S,3.5
V62P,54.7
N85E,0.92
D65F,10.6
K116M,68
H34K,4.21
F124V,2.29
V44K,301
E127P,1.73
V161Y,84.6
K58E,9.01
V70H,37.6
Y53W,14.3
E4A,2.52

# Sample 4
# Target: Histone acetyltransferase KAT6A, winged helix 2, GST fusion (KAT6A, Homo sapiens, UniProt Q92794, residues 85-181)
# Technique: protein binding microarray
# Form: double-stranded DNA, one strand shown
# Matrix: in vitro
# Concentration: not given
# Setting: 8-mer, flanks averaged, mean of 2 arrays, mostly near background
# Reference: not given
# Reading: higher = stronger binding
# Construct (chain): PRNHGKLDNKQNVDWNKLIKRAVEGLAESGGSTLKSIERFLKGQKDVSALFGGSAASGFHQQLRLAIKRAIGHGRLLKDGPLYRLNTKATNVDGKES
Sequence,E-score
ACATTAAT,0.0309
AAAGCGCG,0.0687
GCTTTAAC,-0.0324
GGGTTGGA,0.136
GCGGGCGA,0.199
CCCATGCA,-0.0406
CATCGCCG,0.164
AACGACGG,0.0821
AAGTTAGC,-0.0428
AGCACCGG,0.0459
CATCGGTA,-0.0744
AACCATCC,0.0887
CTAGTCTA,-0.212
TAAAATCA,0.159
ATCATCTG,0.0486
AGTGCCCC,0.0241
AACGGGCC,0.146
CATAGTGG,-0.0425
ACTATTTC,-0.115
AGCGAGCC,0.0742
GGGGCCTA,-0.0992
CCTAGGAA,-0.0679
CATATCGA,-0.0468
AGTAGTAT,-0.0972
CCATTTCC,-0.0346

# Sample 5
# Target: RNA binding protein fox-1 homolog 2, RRM domain, GST-SBP tag (RBFOX2, Homo sapiens, UniProt O43251-10, residues 100-194)
# Technique: RNA Bind-n-Seq
# Form: RNA
# Matrix: in vitro
# Concentration: 365 nM
# Setting: natural RNA segment, single round, ends assumed
# Reference: no-protein control
# Reading: higher = stronger binding
# Shared flanks, not repeated: GGGAGUUCUACAGUCCGACGAUC … UGGAAUUCUCGGGUGCCAA
# Target sequence (chain): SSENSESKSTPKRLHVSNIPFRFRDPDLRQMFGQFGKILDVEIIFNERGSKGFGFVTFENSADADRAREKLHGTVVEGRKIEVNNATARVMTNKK
Sequence,RBNS enrichment (R)
UGUAUGUAGUACAUGUUAUAUGUGUAUAAUCUUUUUACUGAUAGACUGGAAACAUGUCAUCAUUUUUUAGAAAGAAAAAUAAACUUGGUUUUUCCAUAGAUUUCCUACCA,0.513
CAUCCCAGUGUAGGCUCUGAGGCCACAUGGAAACUCUAGAUGGUUCUGAUCACUCUAGCCACCGGAGGAUGAAAGGGAUCUUUUGCAUAGCAGAGGAUUUUAUACACAAA,0.271
UUGGUCCCUUCCUGAGCCCUGCUCCAGUUGUCCCUAAGUGCCUUCCCUUUUGUCUGGACUGACCUGACCCAUGAUGUUUGGACUACAUGUAGGUGAGCGCCCGCAUUGCA,8.53
AGUGUACCUCCUUGAUGGCAGCAGCUAGGCCAUGAGUUCCCAACACACAGUGAUUGACCUGGUCCCACUCCAUUGGGGAAGAAAAGAUACAGAUGUUUGGUUUGGCCAGC,0.377
UCUUAAUUUAAUCUUUGUACACCUUCCAUUUUUAAGUGCUUAAAUGAGUACUAUAUUGCAAUAAAAUGUAGUGAUAUAAUUAACCAGCCAUUAAAAAUUUACUUCUACAG,0.588
CCUGGUCCUGCCCCACUUUCCCACUCACCUUUCUCCACUGGGUGCCAAGUCCUAGCUCCUCCUCCUGGGCUAUAUUCCUGACAAAAGUUCCAUAUAGACACCAAGGAGGC,0.739
CAGAGCACAUUAAAACCAAAGUCUGAUUGUUAAGCCUUUGACUCGGAUGUCUGUAGCAGUUCUAUGAAACAUUGCGUGUAAUGAUAGGGUAAAGAGAUUUCUAUAGAACG,6.42
UGUUUUGGACUCCGUGUCUUCAGUGGUUUGUUAGUUACCAUUACGUAAACCUUGUCUGAGUAGUGUUCCGAGGUCUUGCCGUUCCGGAUCCCUCUGUCUGUUUAUGCCUG,1.79
GAAAGUUAACAUAGUGUGAAUGAAAGUCUGGCCAACAGAGCAGUAGAUGAUAUAACAAAGAAAGCAUGCUUUCUGAGGAGAUAGUGGGGAUAAUCCCUGAAGAGUUGGCA,3.01
CAUAUUUGAAUUGGCCUGAACAGAUGUAAAUCGGGAAGGAUGGGAAAAACUGCAGUCAUCAACAAUGAUUAAUCAGCUGUUGCAGGCAGUGUCUUAAGGAGACUGGUAGG,0.466
GCUAUGCUCUAACGAUCACCUCAGUUCUCCCUCGGAUUCUGGGAACAGAUGAAACUUUUUGCAUCGCUUGAGUCAUUUUUAUCACAAUAAUCCUACUGUGAAGCUGUCGU,0.74
AAUUCAAAUCGUGUGACAGCAAACGGGAUAAAUGGCCCCUUCUCACCCAGUUCCGCUCAGGGCCAUACAGGCUUGCACAUAGAGUGUGCUAAAAAUGGUAACCUCCUUUG,0.285

# Excerpt of the above (sample 1):
Change,normalised enrichment score
L3E,-0.153
R4N,0.128
S10D,0.308
R4T,-0.178
R4C,0.507
R5S,-0.31
